Published values pooled from the literature.
Lines come from different studies, so protocols differ. ± gives the spread as reported.
Methyl-accepting chemotaxis protein CtaA sensing domain: Methyl-accepting chemotaxis protein CtaA, sensing domain (Pseudomonas fluorescens, UniProt Q3K7T6)
Methyl-accepting chemotaxis protein CtaA: Methyl-accepting chemotaxis protein CtaA (Pseudomonas fluorescens, UniProt Q3K7T6)
STARD3 START domain: StAR-related lipid transfer protein 3, START domain (STARD3, Homo sapiens, UniProt Q14849)
UniProt Q14849, sequence (whole entry, looked up): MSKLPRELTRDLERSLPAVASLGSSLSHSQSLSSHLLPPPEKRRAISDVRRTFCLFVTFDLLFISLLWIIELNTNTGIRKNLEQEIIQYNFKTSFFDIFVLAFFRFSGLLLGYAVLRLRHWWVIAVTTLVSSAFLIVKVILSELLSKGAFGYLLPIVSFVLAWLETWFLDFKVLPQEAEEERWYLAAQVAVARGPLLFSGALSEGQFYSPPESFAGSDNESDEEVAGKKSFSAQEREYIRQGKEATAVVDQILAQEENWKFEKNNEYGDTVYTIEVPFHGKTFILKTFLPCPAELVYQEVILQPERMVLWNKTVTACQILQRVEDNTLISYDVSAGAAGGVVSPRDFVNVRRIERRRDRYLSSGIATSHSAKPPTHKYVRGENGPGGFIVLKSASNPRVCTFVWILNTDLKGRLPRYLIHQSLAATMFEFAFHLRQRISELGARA
UniProt P53215, sequence (whole entry, unmodified, looked up): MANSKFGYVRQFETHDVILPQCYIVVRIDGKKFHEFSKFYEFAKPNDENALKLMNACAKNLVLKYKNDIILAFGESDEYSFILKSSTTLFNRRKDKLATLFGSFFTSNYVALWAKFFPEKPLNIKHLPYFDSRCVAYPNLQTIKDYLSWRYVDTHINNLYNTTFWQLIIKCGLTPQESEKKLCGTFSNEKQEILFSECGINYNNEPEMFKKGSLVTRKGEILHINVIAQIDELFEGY
UniProt P32198, sequence (whole entry, looked up): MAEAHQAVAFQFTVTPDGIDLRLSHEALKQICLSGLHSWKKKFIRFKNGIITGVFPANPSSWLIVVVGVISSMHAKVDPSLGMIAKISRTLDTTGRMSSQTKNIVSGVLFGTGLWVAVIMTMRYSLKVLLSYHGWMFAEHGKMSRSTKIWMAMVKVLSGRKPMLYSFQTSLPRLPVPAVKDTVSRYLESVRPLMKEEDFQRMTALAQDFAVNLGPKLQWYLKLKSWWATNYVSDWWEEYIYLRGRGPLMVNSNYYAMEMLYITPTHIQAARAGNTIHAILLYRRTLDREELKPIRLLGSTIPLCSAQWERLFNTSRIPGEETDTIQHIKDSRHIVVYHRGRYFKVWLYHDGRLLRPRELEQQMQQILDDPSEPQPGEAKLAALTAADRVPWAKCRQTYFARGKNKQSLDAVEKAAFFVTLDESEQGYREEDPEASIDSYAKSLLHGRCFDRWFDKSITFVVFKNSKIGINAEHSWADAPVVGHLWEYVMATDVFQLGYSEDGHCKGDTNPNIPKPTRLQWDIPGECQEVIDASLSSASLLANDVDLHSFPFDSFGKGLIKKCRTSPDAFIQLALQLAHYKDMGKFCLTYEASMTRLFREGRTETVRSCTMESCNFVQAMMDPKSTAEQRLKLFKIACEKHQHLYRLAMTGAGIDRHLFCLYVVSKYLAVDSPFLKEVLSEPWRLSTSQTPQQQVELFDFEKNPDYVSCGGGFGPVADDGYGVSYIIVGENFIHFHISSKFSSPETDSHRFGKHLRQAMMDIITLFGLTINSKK
UniProt Q8K1B8, sequence (whole entry, looked up): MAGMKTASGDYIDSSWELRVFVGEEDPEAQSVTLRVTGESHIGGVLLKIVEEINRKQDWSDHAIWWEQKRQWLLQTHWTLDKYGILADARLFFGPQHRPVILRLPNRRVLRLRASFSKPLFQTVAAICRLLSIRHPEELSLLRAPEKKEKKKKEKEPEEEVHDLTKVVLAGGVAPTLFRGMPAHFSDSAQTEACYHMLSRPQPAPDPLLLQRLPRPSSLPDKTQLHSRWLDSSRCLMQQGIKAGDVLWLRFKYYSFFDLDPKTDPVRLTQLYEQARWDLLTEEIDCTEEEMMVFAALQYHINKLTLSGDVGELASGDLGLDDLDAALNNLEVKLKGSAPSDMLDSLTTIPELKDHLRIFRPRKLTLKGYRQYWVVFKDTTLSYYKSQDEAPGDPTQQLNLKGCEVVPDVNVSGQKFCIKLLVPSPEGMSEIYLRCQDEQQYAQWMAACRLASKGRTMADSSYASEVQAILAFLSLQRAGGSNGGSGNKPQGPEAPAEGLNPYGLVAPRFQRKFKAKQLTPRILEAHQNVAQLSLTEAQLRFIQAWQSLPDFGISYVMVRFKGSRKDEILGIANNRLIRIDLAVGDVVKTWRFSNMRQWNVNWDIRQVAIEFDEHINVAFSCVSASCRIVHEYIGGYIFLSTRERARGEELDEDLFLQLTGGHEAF
UniProt Q07741, sequence (whole entry, looked up): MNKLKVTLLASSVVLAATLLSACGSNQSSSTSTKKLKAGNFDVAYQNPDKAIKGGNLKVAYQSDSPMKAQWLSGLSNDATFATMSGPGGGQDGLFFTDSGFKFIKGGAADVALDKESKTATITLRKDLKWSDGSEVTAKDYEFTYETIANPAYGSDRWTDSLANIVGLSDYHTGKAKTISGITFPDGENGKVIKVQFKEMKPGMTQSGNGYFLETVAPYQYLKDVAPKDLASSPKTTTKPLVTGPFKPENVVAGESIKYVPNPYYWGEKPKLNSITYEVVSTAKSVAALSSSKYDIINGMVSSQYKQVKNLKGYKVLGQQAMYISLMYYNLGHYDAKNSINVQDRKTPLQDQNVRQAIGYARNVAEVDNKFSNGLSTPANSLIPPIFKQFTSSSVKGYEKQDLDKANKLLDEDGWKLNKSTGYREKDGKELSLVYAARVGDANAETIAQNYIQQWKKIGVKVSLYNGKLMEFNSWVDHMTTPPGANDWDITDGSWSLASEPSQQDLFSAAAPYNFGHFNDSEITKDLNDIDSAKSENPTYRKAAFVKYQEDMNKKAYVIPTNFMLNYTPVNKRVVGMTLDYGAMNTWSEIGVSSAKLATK
UniProt Q14145, sequence (whole entry, looked up): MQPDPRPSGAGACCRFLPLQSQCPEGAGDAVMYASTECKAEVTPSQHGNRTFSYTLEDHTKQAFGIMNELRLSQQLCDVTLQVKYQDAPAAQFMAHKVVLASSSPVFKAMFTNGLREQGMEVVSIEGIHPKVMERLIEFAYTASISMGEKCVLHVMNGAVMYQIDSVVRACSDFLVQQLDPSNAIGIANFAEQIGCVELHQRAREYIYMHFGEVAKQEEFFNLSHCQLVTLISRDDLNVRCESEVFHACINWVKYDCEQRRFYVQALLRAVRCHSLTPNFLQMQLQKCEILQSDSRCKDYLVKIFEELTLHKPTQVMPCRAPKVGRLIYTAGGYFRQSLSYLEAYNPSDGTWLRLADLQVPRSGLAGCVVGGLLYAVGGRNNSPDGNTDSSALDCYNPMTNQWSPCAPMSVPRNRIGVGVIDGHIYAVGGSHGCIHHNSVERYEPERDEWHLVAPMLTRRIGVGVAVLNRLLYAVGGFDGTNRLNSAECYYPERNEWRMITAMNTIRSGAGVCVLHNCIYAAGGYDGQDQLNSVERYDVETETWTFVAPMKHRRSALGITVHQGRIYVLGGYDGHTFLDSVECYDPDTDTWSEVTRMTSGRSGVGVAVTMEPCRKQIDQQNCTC
UniProt Q96EB6, sequence (whole entry, looked up): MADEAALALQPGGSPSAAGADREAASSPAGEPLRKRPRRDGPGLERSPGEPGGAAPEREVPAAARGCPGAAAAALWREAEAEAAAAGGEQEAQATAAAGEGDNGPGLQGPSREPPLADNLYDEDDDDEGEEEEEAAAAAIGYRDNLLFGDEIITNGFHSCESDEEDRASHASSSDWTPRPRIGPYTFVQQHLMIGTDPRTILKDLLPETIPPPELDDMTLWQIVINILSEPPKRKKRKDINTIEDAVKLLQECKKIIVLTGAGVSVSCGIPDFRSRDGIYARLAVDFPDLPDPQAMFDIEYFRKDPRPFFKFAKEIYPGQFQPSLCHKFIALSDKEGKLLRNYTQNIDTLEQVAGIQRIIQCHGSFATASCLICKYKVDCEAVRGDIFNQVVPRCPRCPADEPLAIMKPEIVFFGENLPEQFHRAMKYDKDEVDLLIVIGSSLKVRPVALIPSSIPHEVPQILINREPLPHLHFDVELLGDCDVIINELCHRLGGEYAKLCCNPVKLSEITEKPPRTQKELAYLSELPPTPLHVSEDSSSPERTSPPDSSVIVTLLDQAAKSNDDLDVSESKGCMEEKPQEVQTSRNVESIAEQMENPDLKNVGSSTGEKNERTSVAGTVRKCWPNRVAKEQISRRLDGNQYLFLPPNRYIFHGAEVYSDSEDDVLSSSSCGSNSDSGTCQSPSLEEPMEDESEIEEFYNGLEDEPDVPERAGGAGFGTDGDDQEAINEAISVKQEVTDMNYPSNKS
UniProt P49902, sequence (whole entry, unmodified, looked up): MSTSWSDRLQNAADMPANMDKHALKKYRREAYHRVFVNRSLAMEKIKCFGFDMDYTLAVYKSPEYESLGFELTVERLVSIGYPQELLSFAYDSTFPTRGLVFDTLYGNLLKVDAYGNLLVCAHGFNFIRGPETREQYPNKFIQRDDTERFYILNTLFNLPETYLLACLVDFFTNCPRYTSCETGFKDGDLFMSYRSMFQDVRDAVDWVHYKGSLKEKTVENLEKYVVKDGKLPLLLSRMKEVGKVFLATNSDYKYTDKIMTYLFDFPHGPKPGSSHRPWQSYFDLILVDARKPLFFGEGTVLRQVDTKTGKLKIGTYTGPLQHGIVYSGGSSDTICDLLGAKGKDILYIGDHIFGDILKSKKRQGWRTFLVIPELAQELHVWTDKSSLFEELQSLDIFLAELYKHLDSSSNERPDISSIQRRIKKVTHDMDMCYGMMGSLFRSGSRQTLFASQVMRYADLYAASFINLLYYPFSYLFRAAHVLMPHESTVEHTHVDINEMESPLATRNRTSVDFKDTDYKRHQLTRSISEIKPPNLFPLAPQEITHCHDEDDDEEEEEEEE
UniProt P06702, sequence (whole entry, looked up): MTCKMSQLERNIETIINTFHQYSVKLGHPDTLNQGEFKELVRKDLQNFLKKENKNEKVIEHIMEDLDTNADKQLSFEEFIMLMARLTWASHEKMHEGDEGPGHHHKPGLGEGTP
UniProt P59768, sequence (whole entry, looked up): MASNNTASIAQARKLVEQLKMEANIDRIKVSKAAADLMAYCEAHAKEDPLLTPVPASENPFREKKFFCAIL
UniProt P02696, sequence (whole entry, looked up): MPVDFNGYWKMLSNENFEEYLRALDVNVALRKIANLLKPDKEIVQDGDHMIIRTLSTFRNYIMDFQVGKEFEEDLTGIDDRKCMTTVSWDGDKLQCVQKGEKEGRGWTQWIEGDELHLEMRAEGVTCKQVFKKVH

| Molecule | target | test | system | setting | Kd |
| --- | --- | --- | --- | --- | --- |
| O=C(O)c1cc(NC(=O)C2CC2c2ccccc2)ccc1O (stereo not shown) | GTPase KRas (KRAS, Homo sapiens, UniProt P01116) | microscale thermophoresis |  | first high-affinity site, together with: GNP-bound | 0.05 ± 0.03 µM |
| N[C@@H](CO)C(=O)O | Methyl-accepting chemotaxis protein CtaA sensing domain | binding, thermal shift, zero heat capacity |  |  | 18 ± 4 µM |
| O=C(N/N=C/c1ccc([N+](=O)[O-])o1)c1ccc(O)cc1 | ERG (Homo sapiens, UniProt P11308) | binding, SPR |  |  | 10.8 µM |
| N=C(N)NCCC[C@H](NC(=O)c1ccc2c(c1)C(=O)OC21c2ccc(O)cc2Oc2cc(O)ccc21)C(=O)N[C@@H](CO)C(=O)N[C@@H](CCCNC(=N)N)C(=O)N[C@@H](CO)C(=O)N[C@@H](CCCNC(=N)N)C(=O)N[C@@H](CO)C(=O)N[C@@H](CCCNC(=N)N)C(=O)N[C@@H](CO)C(=O)N[C@@H](CCCNC(=N)N)C(=O)N[C@@H](CO)C(=O)N[C@@H](CCCNC(=N)N)C(=O)N[C@@H](CO)C(=O)N[C@@H](CCCNC(=N)N)C(=O)N[C@@H](CO)C(=O)N[C@@H](CCCNC(=N)N)C(=O)N[C@@H](CO)C(=O)O | SRPK1 ΔS | peptide binding, fluorescence |  | together with: fluorescein-labelled Arg-Ser peptide | 0.022 ± 0.006 µM |
| CN(C)[C@@H]1C(O)=C(C(N)=O)C(=O)[C@@]2(O)C(O)=C3C(=O)c4c(O)ccc(Cl)c4[C@@](C)(O)[C@H]3C[C@@H]12 | HIV-1 SL2 RNA stem-loop | binding, ESI-FTMS titration |  | pH 7.5 | 161 ± 14.8 µM |
| C[C@H](N)C(=O)O | Methyl-accepting chemotaxis protein CtaA | binding, ITC |  | melting temperature | 7.4 ± 0.4 µM |
| NC[C@@H]1O[C@H](O[C@H]2[C@@H](O)[C@H](O[C@@H]3[C@@H](O)[C@H](N)C[C@H](N)[C@H]3O[C@H]3O[C@H](CO)[C@@H](O)[C@H](O)[C@H]3N)O[C@@H]2CO)[C@H](N)[C@@H](O)[C@@H]1O | HIV-1 SL2 RNA stem-loop | binding, ESI-FTMS titration |  | pH 7.5 | 8.8 ± 1.1 µM |
| CC1=C(/C=C/C(C)=C/C=C/C(C)=C/C=C/C=C(C)/C=C/C=C(C)/C=C/C2=C(C)CCCC2(C)C)C(C)(C)CCC1 | STARD3 START domain | binding, SPR |  | 25 °C | 2.3 ± 0.06 µM |
| CC[C@H](C)[C@H](NC(C)=O)C(=O)N[C@@H](CC(N)=O)C(=O)N[C@H](C(=O)N[C@@H](CCCNC(=N)N)C(=O)N[C@@H](CCCCN)C(=O)N[C@@H](CCCNC(=N)N)C(=O)N[C@@H](CC(N)=O)C(=O)N[C@H](C(=O)N[C@@H](CCC(=O)O)C(=O)N[C@@H](CO)C(=O)NCC(=O)N[C@@H](CCC(=O)O)C(=O)N[C@@H](CCC(=O)O)C(=O)N[C@@H](CCC(=O)O)C(=O)N[C@@H](CC(C)C)C(=O)N[C@@H](C)C(=O)N[C@@H](CO)C(=O)N[C@@H](CCCCN)C(=O)N[C@@H](CC(C)C)C(=O)N[C@@H](CC(=O)O)C(N)=O)C(C)C)C(C)C | KEAP1 (Homo sapiens, UniProt Q14145) | binding, ITC |  | pH 7 | 0.23 µM |
| MDPHAHNGGGS | Protein S100-A9 (S100A9, Homo sapiens, UniProt P06702) | SPR | peptide | 6.25 to 100 µM, pH 7.4 | no binding |
| CS(=O)(=O)c1ccc(-c2nn(-c3ccc(C#N)cc3)cc2C(=O)Nc2cccc(F)c2)cc1 | ALDH1A2 (Homo sapiens, UniProt O94788) | binding, isothermal titration calorimetry |  | 30 °C, together with: NAD 1 mM | 1.1 ± 0.28 µM |
| HPVHHYQ-NH2 (C-amide) | Escherichia coli 16S rRNA A-site hairpin | RNase A footprinting | peptide | pH 7.2, 37 °C | 16 ± 4 µM |
| CC(C)[C@H](N)C(=O)O | Methyl-accepting chemotaxis protein CtaA | binding, ITC |  | melting temperature | 4 ± 1 µM |
| [I-].[K+] | SLC4A1 (Homo sapiens, UniProt P02730) | Cl- exchange, inhibitor, 36Cl flux, one-site model | erythrocytes | site C protonated | 940 µM |
| [Mg+2] | pyruvate carboxylase Rhizobium etli | enzyme activity |  | together with: MgATP varied | 1200 µM |
| CC1=C(/C=C/C(C)=C/C=C/C(C)=C/C=C/C=C(C)/C=C/C=C(C)/C=C/C2=C(C)C[C@@H](O)CC2(C)C)C(C)(C)C[C@H](O)C1 | STARD3 START domain | binding, SPR |  | 25 °C | 1.6 ± 0.01 µM |
| CCCCCCCCCCCCOC(=O)[C@@H](C)[C@@]1(O)[C@@H](O[C@@H]2OC[C@H](O)[C@H](O[C@@H]3OC[C@@H](O)[C@H](O)[C@H]3OC(=O)c3ccc(OC)cc3)[C@H]2OC(C)=O)C[C@H]2[C@@H]3CC=C4C[C@@H](O)CC[C@]4(C)[C@H]3CC[C@@]21C | PTPN1 (Homo sapiens, UniProt P18031) | binding, microscale thermophoresis | HEK293 lysate, GFP-tagged protein | pH 7.5, 25 °C | 0.0232 ± 0.0008 µM |

| Molecule | target | test | system | setting | Kd |
| --- | --- | --- | --- | --- | --- |
| CC(C)[C@H](NC(=O)CNC(=O)[C@H](CC(N)=O)NC(=O)[C@H](CCCNC(=N)N)NC(=O)[C@H](Cc1ccccc1)NC(=O)[C@@H](N)CO)C(=O)NCC(=O)N[C@@H](CO)C(=O)NCC(=O)N[C@H](C(=O)N[C@@H](CCCCN)C(=O)N[C@@H](CCCCN)C(=O)N[C@H](C(=O)N[C@@H](CO)C(=O)N[C@@H](Cc1ccccc1)C(=O)N[C@@H](CCCNC(=N)N)C(=O)N[C@@H](CCCNC(=N)N)C(=O)N[C@@H](C)C(=O)N[C@@H](CCCCN)C(=O)N[C@@H](CCC(N)=O)C(=O)O)[C@@H](C)O)C(C)C | Oligopeptide-binding protein OppA (oppA, Lactococcus lactis subsp. lactis, UniProt Q07741) |  |  |  | 1800 ± 100 µM |
| Nc1ncnc2c1ncn2[C@@H]1O[C@H](COP(=O)(O)OP(=O)(O)OP(=O)(O)O)[C@@H](O)[C@H]1O | tRNA(His) guanylyltransferase (THG1, Saccharomyces cerevisiae, UniProt P53215, N161A) | tRNA(His) adenylylation, substrate, single-turnover kinetics |  | pH 6.0, room temperature, together with: p-tRNA(His) | 1400 ± 400 µM |
| CC(C)C[C@H](N)C(=O)O | Methyl-accepting chemotaxis protein CtaA sensing domain | binding, thermal shift, unfolding equilibrium |  |  | 11 ± 3 µM |
| Nc1nc2c(ncn2[C@@H]2O[C@H](COP(=O)(O)OP(=O)(O)OP(=O)(O)O)[C@@H](O)[C@H]2O)c(=O)[nH]1 | tRNA(His) guanylyltransferase (THG1, Saccharomyces cerevisiae, UniProt P53215, D77A) | nucleotidyl transfer, substrate, single-turnover kinetics |  | pH 7.5, room temperature, together with: ppp-tRNA(His) | 11 ± 4 µM |
| O=C(O)c1cccnc1Nc1cccc(C(F)(F)F)c1 | CLCNKA (Homo sapiens, UniProt P51800, N257A) | chloride current, blocker, voltage clamp | Xenopus oocytes |  | ~1 µM |
| Nc1ncnc2c1ncn2[C@H]1C[C@H](O)[C@@H](COP(=O)(O)OP(=O)(O)OP(=O)(O)O)O1 | DNA polymerase iota (Homo sapiens, UniProt Q9UNA4) | substrate |  | pH 8.0, 37 °C, pre-steady-state, Mg2+, together with: dNTP opposite O2-POB-dT template | 43 ± 12 µM |
| CC1=C(/C=C/C(C)=C\C=C\C(C)=C\CO)C(C)(C)CCC1 | Retinol-binding protein 1 (Rbp1, Rattus norvegicus, UniProt P02696) | binding, fluorescence titration |  | pH 7.4, 25 °C | 0.011 ± 0.002 µM |
| Nc1ncnc2c1ncn2[C@@H]1O[C@H](COP(=O)(O)OP(=O)(O)OP(=O)(O)O)[C@@H](O)[C@H]1O | P2X purinoceptor 7 (P2rx7, Rattus norvegicus, UniProt Q64663) | binding, bio-layer interferometry |  |  | 0.54 ± 0.23 µM |
| CC/C=C/C=C\C=C/C=C/CCCCCCCC(=O)SCCNC(=O)CCNC(=O)[C@H](O)C(C)(C)COP(=O)(O)OP(=O)(O)OC[C@H]1O[C@@H](n2cnc3c(N)ncnc32)[C@H](O)[C@@H]1OP(=O)(O)O (relative stereo) | Carnitine O-palmitoyltransferase 1, liver isoform, C-terminal peptide (Rattus norvegicus, UniProt P32198) | FRET |  |  | 0.02 ± 0.006 µM |
| CC[n+]1c(-c2ccccc2)c2cc(N)ccc2c2ccc(N)cc21 | HIV-1 SL2 RNA stem-loop | binding, ESI-FTMS titration |  | pH 7.5 | 2.6 ± 0.2 µM |
| CC(=O)N[C@@H](CC(C)C)C(=O)N[C@@H](CCCCN)C(=O)N[C@@H](CCCCN)C(=O)N[C@@H](CC(C)C)C(=O)N[C@@H](CC(C)C)C(=O)N[C@@H](CCCCN)C(=O)N[C@@H](Cc1c[nH]c2ccccc12)C(=O)N[C@@H](CC(C)C)C(=O)N[C@@H](CCCCN)C(=O)N[C@@H](CCCCN)C(=O)N[C@@H](CC(C)C)C(=O)N[C@@H](CC(C)C)C(=O)N[C@@H](CCCCN)C(=O)N[C@@H](CC(C)C)C(=O)N[C@@H](C)C(=O)NCC(N)=O | 16S rRNA A-site hairpin (Escherichia coli) | competitive fluorescence anisotropy |  | pH 7.4, 20 °C, together with: rhodamine-Rev peptide | 0.017 ± 0.002 µM |
| C[C@H]1O[C@@H](O[C@H]2CC[C@@]3(C)[C@@H](CC[C@]4(C)[C@@H]3C=CC3=C5CC(C)(C)CC[C@]5(CO)[C@@H](O)C[C@]34C)[C@]2(C)CO)[C@H](O)[C@@H](O[C@@H]2O[C@H](CO)[C@@H](O)[C@H](O)[C@H]2O)[C@H]1O | SIRT1 (Homo sapiens, UniProt Q96EB6) | binding, MST |  |  | 97.6 µM |
| CC(=O)N[C@@H](Cc1c[nH]c2ccccc12)C(=O)N[C@@H](CCCCN)C(=O)N[C@@H](CCCCN)C(=O)N[C@@H](CC(C)C)C(=O)N[C@@H](CC(C)C)C(=O)N[C@@H](CCCCN)C(=O)N[C@@H](CC(C)C)C(=O)N[C@@H](CC(C)C)C(=O)N[C@@H](CCCCN)C(=O)N[C@@H](CCCCN)C(=O)N[C@@H](CC(C)C)C(=O)N[C@@H](CC(C)C)C(=O)N[C@@H](CCCCN)C(=O)N[C@@H](CC(C)C)C(=O)N[C@@H](C)C(=O)NCC(N)=O | 16S rRNA A-site hairpin (Escherichia coli) | competitive fluorescence anisotropy |  | pH 7.4, 20 °C, together with: rhodamine-Rev peptide | 0.00076 ± 5e-05 µM |
| NC(=O)c1c(NC(=O)c2ccc3[nH]cnc3c2)sc2c1CCCC2 | Cytosolic purine 5'-nucleotidase (Homo sapiens, UniProt P49902, D52N/R367Q) | binding, surface plasmon resonance |  | substrate free | 70.9 µM |
| CC[C@H](C)[C@H](NC(=O)CNC(=O)[C@H](CC(=O)O)NC(=O)[C@@H](NC(=O)[C@H](C)NC(=O)[C@H](CCC(N)=O)NC(=O)[C@@H](NC(=O)[C@H](CCSC)NC(=O)[C@H](CCCNC(=N)N)NC(=O)[C@@H](N)CCC(=O)O)[C@@H](C)CC)[C@@H](C)CC)C(=O)N[C@@H](CC(N)=O)C(=O)N[C@@H](C)C(=O)N[C@@H](CCC(N)=O)C(=O)N[C@@H](CCCCN)C(=O)N[C@@H](CCC(N)=O)C(=O)N[C@@H](Cc1c[nH]c2ccccc12)C(=O)N[C@@H](CC(C)C)C(=O)N[C@@H](CCCCN)C(=O)N[C@@H](CO)C(=O)N[C@@H](CCC(=O)O)C(=O)N[C@@H](CC(=O)O)C(=O)N[C@H](C(=O)N[C@@H](CCC(N)=O)C(=O)N[C@@H](CCCNC(=N)N)C(=O)O)[C@@H](C)CC | Guanine nucleotide-binding protein G(I)/G(S)/G(T) subunit beta-1/gamma-2 (Homo sapiens, UniProt P59768+P62873) | binding, SPR |  | pH 8 | > 10 µM |
| O=P(O)(O)O[C@H]1[C@H](OP(=O)(O)O)[C@@H](O)[C@H](O)[C@H](O)[C@@H]1OP(=O)(O)O | Fermitin family homolog 3, PH domain (Fermt3, Mus musculus, UniProt Q8K1B8) | SPR |  | pH 7.5, biotinylated compound immobilised | 284 µM |
| CC(=O)N[C@@H](CC(C)C)C(=O)N[C@@H](CCCCN)C(=O)N[C@@H](CCCCN)C(=O)N[C@@H](CC(C)C)C(=O)N[C@@H](CC(C)C)C(=O)N[C@@H](CCCCN)C(=O)N[C@@H](CC(C)C)C(=O)N[C@@H](CC(C)C)C(=O)N[C@@H](CCCCN)C(=O)N[C@@H](CCCCN)C(=O)N[C@@H](CC(C)C)C(=O)N[C@@H](Cc1c[nH]c2ccccc12)C(=O)N[C@@H](CCCCN)C(=O)N[C@@H](CC(C)C)C(=O)N[C@@H](C)C(=O)NCC(N)=O | 16S rRNA A-site hairpin (Escherichia coli) | competitive fluorescence anisotropy |  | pH 7.4, 20 °C, together with: rhodamine-Rev peptide | 0.017 ± 0.001 µM |
